Assay results collected from several papers.
Compare with care: the assays were run in different laboratories. Values joined by “and” are separate records of one study, mostly repeats; a detail may differ. ± marks the error that the study gave.
CSNK1A1: Casein kinase I isoform alpha (CSNK1A1, Homo sapiens, UniProt P48729)
UniProt P48729, sequence (whole entry, looked up): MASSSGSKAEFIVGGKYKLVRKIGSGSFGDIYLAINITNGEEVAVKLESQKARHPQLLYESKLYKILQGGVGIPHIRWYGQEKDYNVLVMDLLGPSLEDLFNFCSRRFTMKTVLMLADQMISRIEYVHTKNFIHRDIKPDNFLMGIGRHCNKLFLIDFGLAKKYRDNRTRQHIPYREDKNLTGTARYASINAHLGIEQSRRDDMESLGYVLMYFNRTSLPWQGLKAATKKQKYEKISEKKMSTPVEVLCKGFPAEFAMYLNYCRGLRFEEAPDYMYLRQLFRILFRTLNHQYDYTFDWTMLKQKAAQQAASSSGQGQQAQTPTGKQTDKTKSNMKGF
MARK3: MAP/microtubule affinity-regulating kinase 3 (MARK3, Homo sapiens, UniProt P27448)
UniProt P27448, sequence (whole entry, looked up): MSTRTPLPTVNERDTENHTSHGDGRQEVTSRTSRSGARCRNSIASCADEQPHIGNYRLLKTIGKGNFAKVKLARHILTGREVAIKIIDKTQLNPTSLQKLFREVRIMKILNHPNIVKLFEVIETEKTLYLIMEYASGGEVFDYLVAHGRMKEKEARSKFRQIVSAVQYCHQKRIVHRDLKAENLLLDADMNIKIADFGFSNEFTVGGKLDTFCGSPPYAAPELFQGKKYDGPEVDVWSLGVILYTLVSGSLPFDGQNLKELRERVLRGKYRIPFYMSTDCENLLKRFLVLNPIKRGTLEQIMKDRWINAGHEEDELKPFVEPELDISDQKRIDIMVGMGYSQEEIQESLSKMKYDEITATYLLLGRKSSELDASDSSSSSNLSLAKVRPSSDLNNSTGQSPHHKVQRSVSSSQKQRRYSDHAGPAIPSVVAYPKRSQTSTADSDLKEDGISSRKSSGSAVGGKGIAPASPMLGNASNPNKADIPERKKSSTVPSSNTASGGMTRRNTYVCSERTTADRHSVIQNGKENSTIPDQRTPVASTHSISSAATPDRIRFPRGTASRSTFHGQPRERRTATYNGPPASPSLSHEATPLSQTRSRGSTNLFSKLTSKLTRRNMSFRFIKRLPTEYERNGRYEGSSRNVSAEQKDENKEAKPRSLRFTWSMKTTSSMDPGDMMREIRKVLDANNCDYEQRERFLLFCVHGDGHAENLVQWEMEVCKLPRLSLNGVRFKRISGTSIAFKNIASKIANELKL
INSR: Insulin receptor (INSR, Homo sapiens, UniProt P06213)
UniProt Q92626, sequence (whole entry, looked up): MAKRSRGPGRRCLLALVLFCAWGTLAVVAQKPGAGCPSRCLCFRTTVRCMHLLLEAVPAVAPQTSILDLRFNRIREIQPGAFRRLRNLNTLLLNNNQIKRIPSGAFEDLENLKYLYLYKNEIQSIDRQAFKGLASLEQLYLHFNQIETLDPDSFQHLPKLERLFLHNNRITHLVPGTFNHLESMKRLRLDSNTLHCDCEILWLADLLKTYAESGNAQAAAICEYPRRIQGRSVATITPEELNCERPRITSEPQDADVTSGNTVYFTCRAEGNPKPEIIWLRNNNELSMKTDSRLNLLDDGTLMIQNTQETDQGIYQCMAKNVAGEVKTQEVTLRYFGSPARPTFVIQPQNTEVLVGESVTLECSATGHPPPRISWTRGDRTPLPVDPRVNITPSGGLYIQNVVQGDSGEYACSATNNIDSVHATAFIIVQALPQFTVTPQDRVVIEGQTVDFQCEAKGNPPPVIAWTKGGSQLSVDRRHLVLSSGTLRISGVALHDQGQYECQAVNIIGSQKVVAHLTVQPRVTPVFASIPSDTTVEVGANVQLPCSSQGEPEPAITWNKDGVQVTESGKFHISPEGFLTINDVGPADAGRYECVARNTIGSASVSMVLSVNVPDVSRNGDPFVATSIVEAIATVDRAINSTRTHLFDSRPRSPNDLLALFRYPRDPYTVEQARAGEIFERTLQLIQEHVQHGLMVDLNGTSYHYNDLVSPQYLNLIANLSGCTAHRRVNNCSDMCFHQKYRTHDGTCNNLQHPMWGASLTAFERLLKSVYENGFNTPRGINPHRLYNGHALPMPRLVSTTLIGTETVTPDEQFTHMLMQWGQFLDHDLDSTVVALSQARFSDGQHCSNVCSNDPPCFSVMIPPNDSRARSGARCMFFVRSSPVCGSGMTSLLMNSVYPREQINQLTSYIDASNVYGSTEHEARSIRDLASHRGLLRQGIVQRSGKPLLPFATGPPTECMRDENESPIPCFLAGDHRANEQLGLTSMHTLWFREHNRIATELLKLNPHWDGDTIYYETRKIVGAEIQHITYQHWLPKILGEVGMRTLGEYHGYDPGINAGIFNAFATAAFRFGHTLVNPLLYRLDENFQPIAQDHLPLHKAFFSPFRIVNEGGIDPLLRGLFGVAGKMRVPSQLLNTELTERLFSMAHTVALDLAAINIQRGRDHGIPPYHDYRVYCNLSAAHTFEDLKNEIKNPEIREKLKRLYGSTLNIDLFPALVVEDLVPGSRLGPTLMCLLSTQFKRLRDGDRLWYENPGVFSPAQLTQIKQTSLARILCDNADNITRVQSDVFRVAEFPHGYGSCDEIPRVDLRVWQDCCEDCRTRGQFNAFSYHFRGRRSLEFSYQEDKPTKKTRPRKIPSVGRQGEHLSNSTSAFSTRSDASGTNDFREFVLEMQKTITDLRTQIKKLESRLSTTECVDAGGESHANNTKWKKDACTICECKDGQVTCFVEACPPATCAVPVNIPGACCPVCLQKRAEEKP
UniProt P06213, sequence (whole entry, looked up): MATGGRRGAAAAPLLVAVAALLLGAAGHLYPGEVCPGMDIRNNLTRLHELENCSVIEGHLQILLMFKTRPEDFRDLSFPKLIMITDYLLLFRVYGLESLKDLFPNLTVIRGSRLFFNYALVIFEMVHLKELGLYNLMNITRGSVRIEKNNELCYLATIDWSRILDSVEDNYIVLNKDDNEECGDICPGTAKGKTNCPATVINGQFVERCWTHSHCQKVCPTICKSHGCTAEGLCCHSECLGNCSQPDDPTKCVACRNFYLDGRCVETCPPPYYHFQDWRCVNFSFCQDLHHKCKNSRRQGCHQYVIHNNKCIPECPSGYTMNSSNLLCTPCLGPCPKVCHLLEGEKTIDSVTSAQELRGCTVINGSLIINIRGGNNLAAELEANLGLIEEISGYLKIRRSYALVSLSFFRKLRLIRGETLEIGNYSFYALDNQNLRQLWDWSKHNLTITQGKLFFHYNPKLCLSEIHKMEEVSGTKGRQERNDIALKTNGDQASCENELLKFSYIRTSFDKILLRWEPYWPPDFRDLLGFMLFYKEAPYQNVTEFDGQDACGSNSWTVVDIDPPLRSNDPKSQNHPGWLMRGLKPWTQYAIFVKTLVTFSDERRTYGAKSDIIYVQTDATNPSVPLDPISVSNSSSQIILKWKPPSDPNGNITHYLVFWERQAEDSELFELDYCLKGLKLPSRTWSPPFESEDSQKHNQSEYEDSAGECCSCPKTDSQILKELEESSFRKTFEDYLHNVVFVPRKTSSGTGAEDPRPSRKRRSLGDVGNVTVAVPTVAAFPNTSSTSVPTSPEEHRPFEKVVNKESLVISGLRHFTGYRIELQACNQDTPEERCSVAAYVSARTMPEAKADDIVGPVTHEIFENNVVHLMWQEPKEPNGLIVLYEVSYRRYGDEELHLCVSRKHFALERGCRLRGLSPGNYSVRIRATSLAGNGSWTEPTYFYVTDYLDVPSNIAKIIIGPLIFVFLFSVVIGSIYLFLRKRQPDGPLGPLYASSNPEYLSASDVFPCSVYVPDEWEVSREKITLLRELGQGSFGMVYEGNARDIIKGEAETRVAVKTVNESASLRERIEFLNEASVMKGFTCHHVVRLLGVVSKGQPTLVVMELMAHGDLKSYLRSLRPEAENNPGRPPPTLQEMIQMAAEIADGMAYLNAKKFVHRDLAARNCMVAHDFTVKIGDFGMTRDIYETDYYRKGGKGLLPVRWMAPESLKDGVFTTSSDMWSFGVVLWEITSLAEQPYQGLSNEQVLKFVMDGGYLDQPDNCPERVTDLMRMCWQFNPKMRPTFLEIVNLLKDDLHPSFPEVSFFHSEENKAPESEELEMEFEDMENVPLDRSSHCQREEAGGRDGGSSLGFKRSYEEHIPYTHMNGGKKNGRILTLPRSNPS
UniProt Q7L7X3, sequence (whole entry, looked up): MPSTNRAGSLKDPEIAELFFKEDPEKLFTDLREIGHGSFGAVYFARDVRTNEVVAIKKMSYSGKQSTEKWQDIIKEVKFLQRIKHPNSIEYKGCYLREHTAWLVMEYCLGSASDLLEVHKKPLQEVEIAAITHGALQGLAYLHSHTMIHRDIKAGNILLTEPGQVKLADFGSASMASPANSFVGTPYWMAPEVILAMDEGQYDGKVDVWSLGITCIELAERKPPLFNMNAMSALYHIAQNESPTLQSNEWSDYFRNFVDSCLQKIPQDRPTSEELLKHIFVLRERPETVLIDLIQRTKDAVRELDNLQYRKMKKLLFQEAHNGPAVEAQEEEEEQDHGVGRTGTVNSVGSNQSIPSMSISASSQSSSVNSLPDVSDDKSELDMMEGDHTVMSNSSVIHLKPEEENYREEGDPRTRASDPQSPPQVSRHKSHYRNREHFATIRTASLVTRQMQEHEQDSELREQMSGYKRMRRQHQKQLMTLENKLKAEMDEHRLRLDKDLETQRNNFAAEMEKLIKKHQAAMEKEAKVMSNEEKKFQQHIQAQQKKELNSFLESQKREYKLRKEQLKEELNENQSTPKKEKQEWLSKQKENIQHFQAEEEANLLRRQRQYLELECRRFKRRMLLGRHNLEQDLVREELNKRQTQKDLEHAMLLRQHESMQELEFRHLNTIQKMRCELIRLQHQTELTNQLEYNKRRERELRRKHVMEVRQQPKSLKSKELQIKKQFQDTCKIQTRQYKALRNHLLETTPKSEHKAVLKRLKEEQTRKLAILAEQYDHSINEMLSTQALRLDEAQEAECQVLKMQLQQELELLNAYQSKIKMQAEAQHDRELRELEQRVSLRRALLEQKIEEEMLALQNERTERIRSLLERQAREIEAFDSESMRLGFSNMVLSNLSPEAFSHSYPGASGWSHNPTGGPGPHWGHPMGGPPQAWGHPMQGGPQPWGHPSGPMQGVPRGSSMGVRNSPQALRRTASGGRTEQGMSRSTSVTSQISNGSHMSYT

SMILES | tested on | test | system | conditions | scale | quantity | value
Cc1[nH]c(/C=C2\C(=O)Nc3ccc(F)cc32)c(C)c1C(=O)N[C@H]1CCN(C(=O)N(C)C)C1 | CHEK1 (Homo sapiens, UniProt O14757) | kinase activity, inhibitor |  | 0.1 µM | reference: no-compound control | remaining activity | 99%
O=C1OC(C(O)CO)C(=O)C1=O (stereo not drawn) |  | binding, MIDAS equilibrium dialysis LC-MS | A2AR-BRIL thermostabilized | concentration not given | reference: no-protein control | log2 fold change | -0.192
NC/C(=C\F)COc1cccc(Cn2c(=S)[nH]c(=O)c3[nH]cnc32)c1 | Peroxidasin homolog (PXDN, Homo sapiens, UniProt Q92626) | enzyme activity, inhibitor, Amplex UltraRed |  | 40 µM | reference: control | remaining activity | 11.9% and 11.5%
Fc1ccc(-c2nc3cc(F)ccn3c2-c2ccncc2)cc1 | CSNK1A1 | kinase activity, inhibitor, ADP-Glo |  | 0.8751 µM, 0.5 h |  | remaining activity | 29.5% and 15.4%
O=C(NC1CCC1)c1ccc2nc(-c3cccc(NS(=O)(=O)NCCN4CCCCC4)c3)cn2c1 | TNNI3K (Homo sapiens, UniProt Q59H18) | enzyme activity |  | 10 µM |  | remaining activity | 97%
Fc1ccc(-c2nn3cc(F)ccc3c2-c2ccncc2)cc1 | CSNK1A1 | kinase activity, ADP-Glo |  | 1.176 µM | reference: untreated | remaining activity | 15.8%
CNc1ncc2c(/C=C/C(=O)N3CCC(OC)CC3)nn(Cc3cccc(C(F)(F)F)c3)c2n1 | Cyclin-dependent kinase 10, with cyclin Q (CDK10, Homo sapiens, UniProt Q15131) | inhibitor |  | 1 µM | reference: control | remaining activity | 99%
N[C@@H]1CC[C@@H](c2ccc(Cl)c(Cl)c2)c2ccccc21 | SLC6A3 (Homo sapiens, UniProt Q01959, S422A) | dopamine uptake |  | 0.004 µM, 0.03333 h, S422A mutant, together with: [3H]dopamine | reference: no inhibitor | remaining activity | 22.8%
COc1cc(N2CCN(C)CC2)ccc1Nc1nc(N)n(C(=O)NCc2c(Cl)cccc2Cl)n1 | MARK3 | enzyme activity |  | 10 µM | reference: control | remaining activity | 2.5%
O=C(Nc1ccc(F)c(Br)c1)c1ccc2c(c1)C(=O)NC2=O | MAOB (Homo sapiens, UniProt P27338) | inhibitor |  | 4 × IC50, after dialysis | reference: control | remaining activity | 86.2%
CCOc1cc(N2CCN(C)CC2)ccc1Nc1nc(N)n(C(=O)NCc2ccccc2S(=O)(=O)C(C)C)n1 | INSR | enzyme activity |  | 10 µM | reference: control | remaining activity | 0.05%
COC1CC(OC(=O)c2ccc([N+](=O)[O-])cc2)C(OC(=O)c2ccc([N+](=O)[O-])cc2)C(C)O1 (stereo not drawn) | KDM4B (Homo sapiens, UniProt O94953) |  |  | concentration not given |  | remaining activity | 64%
COc1cc(F)ccc1-c1ncnc(Nc2cccc(C[S@](C)(=N)=O)c2)n1 | INSR | kinase activity |  | 10 µM, together with: 10 µM ATP |  | remaining activity | 95%
O=C1NC(=O)/C(=C/c2ccc(-c3ccc(F)cc3O)o2)S1 | MARK3 | enzyme activity |  | 10 µM |  | remaining activity | 67%
COc1cc(Nc2ncc3c(n2)-c2ccc(Cl)cc2C(c2c(F)cccc2OC)=NC3)ccc1C(=O)O | PRKCD | kinase activity |  | 1 µM |  | remaining activity | 83%
Nc1nc2c(ncn2[C@H]2C[C@H](O)[C@@H](COP(=O)(O)O)O2)c(=O)[nH]1 |  | binding, MIDAS equilibrium dialysis LC-MS | A2AR-BRIL thermostabilized | concentration not given | reference: no-protein control | log2 fold change | -0.174
C=CC(=O)N1CCC[C@@H](n2nc(-c3ccc(Oc4ccccc4)cc3)c3c(N)ncnc32)C1 | TNK1 (Homo sapiens, UniProt Q13470) |  |  | 10 µM |  | remaining activity | 72.7%
COc1ccc(F)cc1C(=O)NCc1ccc(-c2nn([C@@H](C)C(F)(F)F)c(N)c2C(N)=O)cc1 | FGR (Homo sapiens, UniProt P09769) | kinase activity, inhibitor, HotSpot radiometric |  | 100 nM, together with: ATP 10 µM |  | remaining activity | 81 ± 0.5%
C[C@@H](Oc1ccc(S(C)(=O)=O)cc1C(=O)N1C[C@@H]2C[C@]2(c2cc(C(F)(F)F)on2)C1)C(F)(F)F | SLC6A9 (Homo sapiens, UniProt P48067, G373S) | glycine uptake, inhibitor, [3H]glycine uptake |  | 0.002 µM, G319S mutant, log concentration 2, together with: [3H]glycine | reference: no inhibitor | remaining activity | 91.7%
Cc1cc(Nc2cc(N3CCN(C)CC3)nc(Sc3ccc(NC(=O)C4CC4)cc3)n2)[nH]n1 | GRK7 (Homo sapiens, UniProt Q8WTQ7) | kinase activity, KinaseProfiler |  | 0.03 µM, species human | reference: control | remaining activity | 126%
COc1cc(-c2cncc3c2CN(C)Cc2cc(N4CCNCC4)ccc2-3)cc(OC)c1OC | TYRO3 (Homo sapiens, UniProt Q06418) | kinase activity |  | 1 µM, human enzyme, together with: ATP 10 µM | reference: DMSO control | remaining activity | 102%
O=C(O)c1ccc(Nc2ncc3c(n2)-c2ccc(Cl)cc2C(c2c(F)cccc2F)=NC3)cc1 | human DDR2(h) | kinase activity |  | 1 µM |  | remaining activity | 87%
COc1cc(N2CCN(C)CC2)ccc1Nc1nc(N)n(C(=S)NCc2c(Cl)cccc2Cl)n1 | NEK5 (Homo sapiens, UniProt Q6P3R8) | enzyme activity |  | 10 µM | reference: control | remaining activity | 6.6%
Nc1ncc2c(n1)-c1c([nH]c3ccc(-c4ccc(F)cc4)cc13)CCC2 | TAOK1 (Homo sapiens, UniProt Q7L7X3) | kinase activity, inhibitor, radiometric |  | 1 µM, together with: ATP at Km |  | remaining activity | 87%

Repeated from above:
SMILES | tested on | test | system | conditions | scale | quantity | value
COc1cc(N2CCN(C)CC2)ccc1Nc1nc(N)n(C(=O)NCc2c(Cl)cccc2Cl)n1 | MARK3 | enzyme activity |  | 10 µM | reference: control | remaining activity | 2.5%
O=C(Nc1ccc(F)c(Br)c1)c1ccc2c(c1)C(=O)NC2=O | MAOB (Homo sapiens, UniProt P27338) | inhibitor |  | 4 × IC50, after dialysis | reference: control | remaining activity | 86.2%
CCOc1cc(N2CCN(C)CC2)ccc1Nc1nc(N)n(C(=O)NCc2ccccc2S(=O)(=O)C(C)C)n1 | INSR | enzyme activity |  | 10 µM | reference: control | remaining activity | 0.05%
